Experimental data of several laboratories.
Lines come from different studies, so protocols differ. Numbers after ± are the reported error.

C=C1CCN2C(=O)COc3cccc(c3)C(CCc3ccc(OC)c(OC)c3)OC(=O)C3CCCCN3C(=O)C(=O)C(C)(C)COC(=O)C(C)NC(=O)C2C1 (centres unmarked) — recruitment (FKBP1A/MAPRE1 (Homo sapiens, UniProt P62942+Q15691); FKBP12-MAPRE1 proximity, TR-FRET; concentration not given; baseline: DMSO): 0%
CN(C)S(=O)(=O)c1ccc(S(=O)(=O)N2CCC(n3c(=O)[nH]c4ccccc43)CC2)cc1 — ATPase activity (DNA excision repair protein ERCC-6 (ERCC6, Homo sapiens, UniProt Q03468); 100 µM): no effect
CC1=C(/C=C/C(C)=C/C=C/C(C)=C/C=O)C(C)(C)CCC1 — slow time constant of inhibition (CNGA1 (Bos taurus, UniProt Q00194); ion current, inhibitor, patch clamp; 200 nM, holding potential +50 mV, added: cGMP 2 mM): 3780 s
CCc1cc(C)n2nc(-c3ccc(OCC[18F])cc3)c(CC(=O)N(CC)CC)c2n1 — tumour uptake, non-displaced tracer (Tspo (Rattus norvegicus, UniProt P16257); PET; rat, C6 glioma, tumour; 60 min): ~0.2 %ID/cc
CC(C)C[C@H](NC(=O)[C@H](CC(N)=O)NC(=O)[C@H](CCCNC(=N)N)NC(=O)[C@H](CC(=O)O)NC(=O)[C@@H](NC(=O)[C@@H]1CCCN1C(=O)[C@H](Cc1ccccc1)NC(=O)[C@@H]1CCCN1)C(C)C)C(=O)N[C@@H](CCCCN)C(=O)N1CCC[C@H]1C(=O)N[C@@H](CC(=O)O)C(=O)N[C@@H](CCCNC(=N)N)C(=O)O — binding (Growth factor receptor-bound protein 2, C-terminal SH3 domain (GRB2, Homo sapiens, UniProt P62993); SH3 domain binding, isothermal titration calorimetry; concentration not given, C-terminal SH3 domain): no binding
CC[C@H](C)[C@H](NC(C)=O)C(=O)N[C@H]1CSSC[C@@H](C(=O)N[C@H](C(N)=O)[C@@H](C)O)NC(=O)[C@H](CCCNC(=N)N)NC(=O)[C@H](Cc2c[nH]cn2)NC(=O)[C@H](C)NC(=O)CNC(=O)[C@H](Cc2c[nH]c3ccccc23)NC(=O)[C@H](CC(=O)O)NC(=O)[C@H](CCC(N)=O)NC(=O)[C@H](Cc2ccc(O)cc2)NC(=O)[C@H](C(C)C)NC1=O — -TΔΔS (Complement C3 (Homo sapiens, UniProt P01024); isothermal titration calorimetry; baseline: 1-methyltryptophan reference): -1.6 kcal/mol
[11CH3]N1CCN(CCCOc2ccc(=O)n(-c3ccc(Cl)c(Cl)c3)n2)CC1 — non-specific binding share (Sigmar1 (Mus musculus, UniProt O55242); radiotracer; mouse BALB/c, brain; dose not given, added: self-blocking 2.88 mg/kg): ~40%
COc1ccc(CCCN[C@@H]2CCC[C@H]2CN[C@H]2CCC[C@@H]2CNCCCCN[C@@H]2CCC[C@H]2CN)cc1 — selectivity ratio (KDM1B (Homo sapiens, UniProt Q8NB78); peroxidase-coupled; baseline: Ki for KDM1B over Ki for LSD1): 6.1
COC(=O)CCSc1nc2n(n1)C(c1cccc(OC)c1)C(C(=O)Nc1cncc(C)c1)=C(C)N2 (centres unmarked) — inhibition (MTOR (Homo sapiens, UniProt P42345); enzyme activity, inhibitor, TR-FRET; 0.3 µM): 87.9%
O=C(COCCCc1ccccc1)N[C@@H](Cc1cn(CCNC(=O)c2ccc(S[C@@H]3O[C@H](CO)[C@H](O)[C@H](O)[C@H]3O)cc2)nn1)C(=O)NCCO — −TΔS (lecA (Pseudomonas aeruginosa, UniProt Q05097); binding, isothermal titration calorimetry; 25 °C): 3.56 ± 0.191 kcal/mol
CNc1ccccc1C(=O)O[C@H]1C[C@H](n2cnc3c(N)ncnc32)O[C@@H]1COP(=O)(O)OP(=O)(O)O — ΔS of pocket step (Unconventional myosin-Va (Gallus gallus, UniProt Q02440, D297C/G292C/I296C/S293C/V295G); van't Hoff analysis; added: 2 mM Mg2+): -17.8 ± 11.2 cal/(mol·K)
